Published values from different studies.
A part holds a random share of what one study measured.

Set 1
Target: Sal-like protein 4, full length isoform B (SALL4, Homo sapiens, UniProt Q9UJQ4-2, residues 1-616)
Technique: universal PBM
Molecule type: double-stranded DNA, one strand shown
Sample: in vitro
Concentration: not given
Setting: 8-mer, flanks averaged, mean of replicates
Reading: higher = stronger binding
Residues (chain): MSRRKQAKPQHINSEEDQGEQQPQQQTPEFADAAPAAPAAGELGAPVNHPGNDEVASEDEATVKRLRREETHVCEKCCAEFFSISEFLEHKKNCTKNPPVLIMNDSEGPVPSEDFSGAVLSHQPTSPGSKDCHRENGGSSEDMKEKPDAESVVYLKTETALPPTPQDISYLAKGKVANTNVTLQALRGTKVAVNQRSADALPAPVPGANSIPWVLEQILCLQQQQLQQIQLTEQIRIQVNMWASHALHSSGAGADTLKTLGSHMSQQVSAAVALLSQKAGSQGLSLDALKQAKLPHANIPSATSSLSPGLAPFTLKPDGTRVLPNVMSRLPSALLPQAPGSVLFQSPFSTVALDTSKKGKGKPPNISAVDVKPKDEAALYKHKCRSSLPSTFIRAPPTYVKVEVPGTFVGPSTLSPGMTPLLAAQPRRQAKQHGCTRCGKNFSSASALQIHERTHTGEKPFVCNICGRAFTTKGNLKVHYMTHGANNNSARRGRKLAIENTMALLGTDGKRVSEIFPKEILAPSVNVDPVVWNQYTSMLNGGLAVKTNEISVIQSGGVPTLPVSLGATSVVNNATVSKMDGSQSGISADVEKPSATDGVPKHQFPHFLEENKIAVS
Oligonucleotide	E-score
AAATTTTA	0.351
CAAGTCCC	-0.218
TGATTACA	0.241
CAGACTAA	-0.0194
CAACCCTC	-0.0816
AAAAGACC	-0.0081
ATCCAACG	-0.149
AGCCTGGG	-0.293

Set 2
Target: Interferon regulatory factor 7, full length, phosphomimetic (IRF7, Homo sapiens, UniProt Q92985, residues 1-503, S101K/S471D/S472D/S475D/S476D/S477D/S483D/S484D/S487D)
UniProt Q92985, sequence (whole entry, unmodified, looked up): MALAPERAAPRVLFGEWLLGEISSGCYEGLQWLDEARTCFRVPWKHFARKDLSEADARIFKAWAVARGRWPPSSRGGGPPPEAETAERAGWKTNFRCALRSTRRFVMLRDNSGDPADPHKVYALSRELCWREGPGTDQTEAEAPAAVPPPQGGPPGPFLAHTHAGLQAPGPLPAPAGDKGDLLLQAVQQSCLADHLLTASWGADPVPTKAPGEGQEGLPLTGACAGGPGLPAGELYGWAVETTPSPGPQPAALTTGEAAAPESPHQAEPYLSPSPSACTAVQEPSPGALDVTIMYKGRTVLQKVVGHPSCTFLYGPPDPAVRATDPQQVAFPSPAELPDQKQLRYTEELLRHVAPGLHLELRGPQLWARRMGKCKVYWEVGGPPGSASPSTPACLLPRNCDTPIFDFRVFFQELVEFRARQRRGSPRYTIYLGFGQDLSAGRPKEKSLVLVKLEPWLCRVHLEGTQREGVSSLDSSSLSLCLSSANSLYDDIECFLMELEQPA
Technique: protein-binding microarray
Molecule type: double-stranded DNA, one strand shown
Sample: in vitro
Concentration: 250 nM
Setting: 60-bp whole probe
Together with: salmon DNA 0.4 mg/ml
Baseline: random background probes
Reading: higher = stronger binding
Constant ends, left off below: GCCTAGCAC … GTCTTGATTCGCTTGACGCTGCTG
Oligonucleotide	log fluorescence
GAAGAACTGAGTTTCGAGACGTGCTAG	4.01 z-score
GACGGTCTCGATCTCGGGACGTGCTAG	1.11 z-score
GACGGTATCCTTAGCCTGACGTGCTAG	-0.241 z-score
TTAGGTTTGGGTCTCGGTTAGTGCTAG	1.19 z-score
TTAGATATCAGTTTCGTTTAGTGCTAG	9.16 z-score
AAGAAGCTTCCTCTCTGCCAGTGCTAG	-0.0674 z-score
TTAAGACTGGACACTGGGTTAGTGCTA	-0.744 z-score
CAAGTTTTTATTTTCTGAATGTGCTAG	2.02 z-score

Set 3
Target: Replicase polyprotein 1ab, polymerase (rep, Severe acute respiratory syndrome coronavirus 2, UniProt P0DTD1)
Observed: enzyme activity
Mode: inhibitor
Concentration: 20 µM
Compound	inhibition [%]
Cc1nc2c([nH]1)-c1ccccc1N(C(=O)c1ccc(NC(=O)c3ccccc3-c3ccccc3)cc1)CC2	2.5
CC(C)OC(=O)[C@H](C)N[P@](=O)(CO[C@H](C)Cn1cnc2c(N)ncnc21)Oc1ccccc1	-3.89
Cc1c[nH]c2ncnc(N3CCC(CN)(C(=O)Nc4cccc(OC(=O)N(C)C)c4)CC3)c12	-4.84
N[C@@H](C(=O)N[C@@H]1C(=O)N2C(C(=O)O)=C(Cl)CC[C@H]12)c1ccccc1	-1.62
CCCC1(CCC)CCC2(CCN(CCCN(CC)CC)C2)CC1	-1.07
NC(=O)c1cc[n+](CC2=C(C(=O)[O-])N3C(=O)[C@@H](NC(=O)Cc4cccs4)[C@H]3SC2)cc1	-1.3
O=C(Nc1ccccc1C(=O)Nc1ccc(CCO)cc1)c1ccc([N+](=O)[O-])cc1	3.56
CCOC(=O)[C@]12CC1/C(=N\O)c1ccccc1O2 (mixture of isomers)	3.25
CCN(c1ccccc1)c1cc(=NC)n(C)c(C)n1	-0.18
CCCCNc1ncc2c(-c3ccc(CN4CCN(C)CC4)cc3)cn([C@H]3CC[C@H](O)CC3)c2n1	5.14
N=C(N)NN	5.85
O=c1[nH]cnc2c1ncn2[C@H]1CC[C@@H](CO)O1	-2.75
N[C@@H]1CCCCN(c2c(F)cc3c(=O)c(C(=O)O)cn(C4CC4)c3c2Cl)C1	2.57
CCCC[C@]1(CC)CS(=O)(=O)c2cc(CNC(CC(=O)O)CC(=O)O)c(OC)cc2[C@@H](c2ccccc2)N1	2.14
CCc1ccc(C(=O)C(C)CN2CCCCC2)cc1 (stereo not drawn)	-1.66
Cc1cc(C)c2c(c1)[C@@H](N(Cc1cc(C(F)(F)F)cc(C(F)(F)F)c1)c1nnn(C)n1)CCCN2C[C@H]1CC[C@H](C(=O)O)CC1	-0.94
Cc1ccccc1-n1c(CF)nc2ccc(N)cc2c1=O	2.05
CN(C)[C@@H]1CCc2[nH]c3ccc(NC(=O)c4ccc(F)cc4)cc3c2C1	29.6
NCCNCCNCCN	-5.27
CCOc1cc(C(=O)Nc2ccc(Cl)c(-c3nc4ccccc4[nH]3)c2)cc(OCC)c1OCC	-0.83
Cc1cc(C)c(N)c(C#Cc2cccc(F)c2)n1	3.61
Nc1nncs1	1.23
CC(C)C(=O)Nc1ccc([N+](=O)[O-])c(C(F)(F)F)c1	-0.85
CC[C@@H]1C(=O)N(C)c2cnc(Nc3ccc(C(=O)N[C@H]4CC[C@H](N5CCN(CC6CC6)CC5)CC4)cc3OC)nc2N1C(C)C	8.67
CN(C)c1ccc(/C=C2\C(=O)Nc3ccccc32)cc1	1.98

Set 4
Target: RNA binding protein fox-1 homolog 2, RRM domain, GST-SBP tag (RBFOX2, Homo sapiens, UniProt O43251-10, residues 100-194)
Technique: RNA Bind-n-Seq
Molecule type: RNA
Sample: in vitro
Concentration: 365 nM
Setting: natural RNA segment, single round, ends assumed
Baseline: no-protein control
Reading: higher = stronger binding
Constant ends, left off below: GGGAGUUCUACAGUCCGACGAUC … UGGAAUUCUCGGGUGCCAA
Construct (chain): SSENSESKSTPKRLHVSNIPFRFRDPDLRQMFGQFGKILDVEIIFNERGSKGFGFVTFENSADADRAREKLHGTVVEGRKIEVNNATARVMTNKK
Oligonucleotide	RBNS enrichment (R)
GAAUUUGUCUGUGUACAACUCUAGAUGGAGUGGGCCAGCAGUAGCUGCCAGUCUUUCUCCCCUGCAGCUUCCUCUGCUUCUGGAAUGAACCAUGUAUCCUGGAGACCCUC	0.217
AUCAGUGGUGGGUUUUCAAAAUGUACUUGUUCUAAUAAGUUGUACAAUGAACUAAAUCAGUGGCAUUCUCUAGAUAAUGUGGGGGAAGGUUAGAAUAUUUUCUGGCCUUC	0.451
UCUGGUCUCUUUAAGACUGUUUUAAAAGAAAUCAAUUUAGGGAACCCCAGUUAUAUAAUAUAAACUUUGUAAUCUGAGAGAAAAAAUGUAUAGUAAAUCUAAGUCUUGAU	1.08
UACAGAGGGCUUGGUUUGAAGUUGGGGUGAGAUGAAACCUUUGCUCUGAGCCAAAGCUCUGGGGCCUUGCAUUCCCUGCAUUGGGUUGAUGACUGUCAGCAUCACUGCCG	0.283
UUAAUCACACUAUAGAGGCAUAAGUGGUAUCAGUUUUCAUUUUUCUAAUUGUUUAAACUGUGUUUUAUACCAGUGUUUGCAAGUAAUUGGGUGUUAGCUUGAGAUGGUUA	0.374
GGUUAGCACUUAAUAUGUAGAAGCUUGGGCUUGAAGGUGAUGUCCACCUUAAUCAGCAUCACUUGCAGAGACUGACCCUAAACAACACAGCAGGGGCAGGGAACGGGUAG	1.13
UGGAAGAGUUGUCAUCACUAAAACUUCAGUACUGAGAGUAACAUGACUCAGUAGCCACAGAAGCUAUGAUUUGUAAAAUAUAUAAUUGAAUCAGAGUAAUCAUAAUGCAG	0.532
UUAGAGAUCUGAAAACUCAUUAGAGAUGUUGAGUCUUAUCAAAUAAAAAGCAUGAGACAUCAUGGCCGUAAUGUCUUUGGGUGAUUUUUCCCCCUCUCCCUGGAUGUAGA	0.485

Further values, each from its own experiment
Structure (SMILES)	cell line	test	test system	conditions	scale	quantity	result
Nc1cccc2c1C(=O)N(C1CCC(=O)NC1=O)C2=O (stereo not drawn)	HEK-293T/ACE2	–	–	concentration not given, 16 (unit not given)	baseline: vehicle	viability	91.8%
N=C1CCCN1Cc1nc(O)nc(O)c1Cl	HEK-293T	pseudovirus infection	VSV pseudotyped with SARS-CoV-2 spike	10 µM, 16 h	baseline: vehicle-treated	GFP-positive cells	93.5%

Excerpt of the above (set 2):
Oligonucleotide	log fluorescence
GACGGTCTCGATCTCGGGACGTGCTAG	1.11 z-score
TTAAGACTGGACACTGGGTTAGTGCTA	-0.744 z-score
GAAGAACTGAGTTTCGAGACGTGCTAG	4.01 z-score
AAGAAGCTTCCTCTCTGCCAGTGCTAG	-0.0674 z-score
GACGGTATCCTTAGCCTGACGTGCTAG	-0.241 z-score
